Measured values collected from several papers.
Parts stem from different laboratories: compare values within a part only.

Series 1
Target: Histone acetyltransferase KAT6A, winged helix 2, GST fusion (KAT6A, Homo sapiens, UniProt Q92794, residues 85-181)
Technique: protein binding microarray
Molecule type: double-stranded DNA, one strand shown
Matrix: in vitro
Tested at: not given
Setting: 8-mer, flanks averaged, mean of 2 arrays, mostly near background
Reference: not given
Reading: higher = stronger binding
Construct (chain): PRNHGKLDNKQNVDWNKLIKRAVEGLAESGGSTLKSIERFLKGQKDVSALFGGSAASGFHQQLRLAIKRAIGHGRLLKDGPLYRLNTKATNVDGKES
`CTGTGTGA` has an E-score of -0.00382.
For `CTTCATGC`, the E-score was -0.0893.
With `CCCGACCC` the E-score was 0.114.
`CCCTTCCG` gave an E-score of 0.147.

Series 2
Target: Sal-like protein 4, full length isoform A (SALL4, Homo sapiens, UniProt Q9UJQ4, residues 1-1053)
Chain of UniProt Q9UJQ4 (whole entry, looked up): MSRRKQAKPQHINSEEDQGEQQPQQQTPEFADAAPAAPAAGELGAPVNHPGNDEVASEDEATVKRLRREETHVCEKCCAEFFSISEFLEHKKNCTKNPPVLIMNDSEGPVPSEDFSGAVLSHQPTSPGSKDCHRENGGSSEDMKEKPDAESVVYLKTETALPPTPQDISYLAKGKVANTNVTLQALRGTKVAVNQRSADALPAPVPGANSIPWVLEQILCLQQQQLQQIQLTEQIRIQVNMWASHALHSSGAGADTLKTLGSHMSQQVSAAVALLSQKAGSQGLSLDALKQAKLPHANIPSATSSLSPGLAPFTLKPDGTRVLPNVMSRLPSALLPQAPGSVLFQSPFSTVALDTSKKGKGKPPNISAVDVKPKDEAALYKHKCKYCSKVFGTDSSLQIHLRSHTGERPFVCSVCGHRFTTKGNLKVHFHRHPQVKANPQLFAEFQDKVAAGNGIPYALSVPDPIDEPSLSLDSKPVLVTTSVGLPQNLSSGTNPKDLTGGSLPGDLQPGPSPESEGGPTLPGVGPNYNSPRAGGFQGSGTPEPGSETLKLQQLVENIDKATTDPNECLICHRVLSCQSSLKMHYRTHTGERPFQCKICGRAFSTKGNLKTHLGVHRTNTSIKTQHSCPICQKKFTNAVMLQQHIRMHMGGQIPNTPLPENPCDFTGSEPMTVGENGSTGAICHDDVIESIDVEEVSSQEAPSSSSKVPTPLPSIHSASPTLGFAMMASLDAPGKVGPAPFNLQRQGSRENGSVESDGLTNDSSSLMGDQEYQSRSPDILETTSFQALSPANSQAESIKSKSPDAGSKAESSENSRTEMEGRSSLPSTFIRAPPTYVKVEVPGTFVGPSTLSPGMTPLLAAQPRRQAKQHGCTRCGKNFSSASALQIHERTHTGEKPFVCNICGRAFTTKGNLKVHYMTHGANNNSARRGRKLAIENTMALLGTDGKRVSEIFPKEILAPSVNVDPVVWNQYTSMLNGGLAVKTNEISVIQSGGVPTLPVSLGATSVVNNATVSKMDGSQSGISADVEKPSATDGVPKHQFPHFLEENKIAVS
Technique: universal PBM
Molecule type: double-stranded DNA, one strand shown
Matrix: in vitro
Tested at: 600 nM
Setting: 8-mer, flanks averaged, mean of replicates
Reading: higher = stronger binding
For `ATGGTGCG`, the E-score was -0.0764.
With `CGAGTGAA` the E-score was 0.0237.
`AGATCCTG` gave an E-score of -0.126.

Series 3
Target: RNA binding protein fox-1 homolog 2, RRM domain, GST-SBP tag (RBFOX2, Homo sapiens, UniProt O43251-10, residues 100-194)
Technique: RNA Bind-n-Seq
Molecule type: RNA
Matrix: in vitro
Tested at: 365 nM
Setting: natural RNA segment, single round, ends assumed
Reference: no-protein control
Reading: higher = stronger binding
Target sequence (chain): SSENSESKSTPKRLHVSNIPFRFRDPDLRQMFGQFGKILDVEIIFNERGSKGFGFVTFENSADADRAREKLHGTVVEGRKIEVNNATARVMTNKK
Under “RBNS enrichment (R)”, `GGGAGUUCUACAGUCCGACGAUCGAUUCUCUGAAAAUACUUUGCAGUUCCUUGUGUCUUAAAAAAACACAAAAACAAAAACCAGAACUAGUCAGAUUGAAACCAUACUGUUCCUCCAGAGCGGCGUUAGACAGUGGAAUUCUCGGGUGCCAA` is recorded as 0.31.
Under “RBNS enrichment (R)”, `GGGAGUUCUACAGUCCGACGAUCGAUUCUGUUUGCUCCACGUGCCUGCUUCUUGCUACUGUUCAUUUAGUAAUGGGAUCACCUCACCAUGCCAUGCUCUGGGCUCUCCCUCUCUGUCCAUUUCUGUUUUGCUUUGGAAUUCUCGGGUGCCAA` is recorded as 2.42.
`GGGAGUUCUACAGUCCGACGAUCAGCACUGUUCAGGCUGCCUGUCAUCCCGGGCCUGCCAGCUCCCCUGAGUGAUGAGCACUUCCAAGCACCCCUCUGCCCUUUCUCUGUCCUUAUGCUGUCCCGGCCUCGCCUGGAAUUCUCGGGUGCCAA` — result for “RBNS enrichment (R)”: 0.57.
`GGGAGUUCUACAGUCCGACGAUCGCAUAAAAUAUGUAACCAGGAAAAGACUGUUAACAUUACAUUUAUGCAAAUUAAAUGCCCUUAAAUUUCACCAUUUGUCUUUCAUUUUAAAGGUUAUUUGCUCCCGAUUAUGGAAUUCUCGGGUGCCAA` — result for “RBNS enrichment (R)”: 0.697.

Further values, each from its own experiment
`PhoQ, residues 284 288 289 292 302 303 ALASRC` gave a fold induction of 7.39 (PhoP, residues 12 14 15 18 19 GQAIL (Escherichia coli, UniProt P23836); Sort-seq, measured: YFP reporter; E. coli; PhoQ-PhoP variant library, with: 10 µM Mg2+; reference: high Mg2+ state, higher = stronger signaling).

Excerpt of the above (series 1):
`CCCTTCCG` gave an E-score of 0.147.
